Measured values of several laboratories.
Lines come from different studies, so protocols differ. “And” joins repeats or separate records; there may be more than shown. ± gives the spread as reported.
hdac10: Polyamine deacetylase HDAC10 (hdac10, Danio rerio, UniProt F1QCV2)
Sequence of UniProt F1QCV2 (whole entry, looked up): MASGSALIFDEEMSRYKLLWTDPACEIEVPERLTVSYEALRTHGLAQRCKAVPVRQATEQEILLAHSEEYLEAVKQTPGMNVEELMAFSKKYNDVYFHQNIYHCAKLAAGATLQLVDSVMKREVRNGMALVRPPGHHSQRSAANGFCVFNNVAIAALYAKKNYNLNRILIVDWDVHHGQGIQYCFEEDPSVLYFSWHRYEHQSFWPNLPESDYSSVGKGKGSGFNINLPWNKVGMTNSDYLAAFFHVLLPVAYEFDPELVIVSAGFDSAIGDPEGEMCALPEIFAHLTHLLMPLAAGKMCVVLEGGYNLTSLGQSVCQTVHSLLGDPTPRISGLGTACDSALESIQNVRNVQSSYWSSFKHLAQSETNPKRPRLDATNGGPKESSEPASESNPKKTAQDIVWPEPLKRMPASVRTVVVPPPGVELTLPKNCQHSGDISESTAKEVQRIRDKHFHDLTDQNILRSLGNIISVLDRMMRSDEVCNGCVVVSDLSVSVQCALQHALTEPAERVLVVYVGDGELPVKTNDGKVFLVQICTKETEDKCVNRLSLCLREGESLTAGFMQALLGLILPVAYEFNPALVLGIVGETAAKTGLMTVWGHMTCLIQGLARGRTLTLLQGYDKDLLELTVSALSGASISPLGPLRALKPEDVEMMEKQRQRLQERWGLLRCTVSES
Sigmar1: Sigma non-opioid intracellular receptor 1 (Sigmar1, Rattus norvegicus, UniProt Q9R0C9)
Sequence of UniProt Q9R0C9 (whole entry, looked up): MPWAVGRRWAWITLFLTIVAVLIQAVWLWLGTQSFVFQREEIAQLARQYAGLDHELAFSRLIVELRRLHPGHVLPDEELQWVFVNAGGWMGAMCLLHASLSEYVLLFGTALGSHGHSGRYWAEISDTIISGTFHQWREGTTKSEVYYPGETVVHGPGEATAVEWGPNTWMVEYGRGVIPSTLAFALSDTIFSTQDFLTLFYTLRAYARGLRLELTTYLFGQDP
Ectonucleoside triphosphate diphosphohydrolase 8: Ectonucleoside triphosphate diphosphohydrolase 8 (Homo sapiens, UniProt Q5MY95)
AKR1C2: Aldo-keto reductase family 1 member C2 (AKR1C2, Homo sapiens, UniProt P52895)
Sequence of UniProt P52895 (whole entry, looked up): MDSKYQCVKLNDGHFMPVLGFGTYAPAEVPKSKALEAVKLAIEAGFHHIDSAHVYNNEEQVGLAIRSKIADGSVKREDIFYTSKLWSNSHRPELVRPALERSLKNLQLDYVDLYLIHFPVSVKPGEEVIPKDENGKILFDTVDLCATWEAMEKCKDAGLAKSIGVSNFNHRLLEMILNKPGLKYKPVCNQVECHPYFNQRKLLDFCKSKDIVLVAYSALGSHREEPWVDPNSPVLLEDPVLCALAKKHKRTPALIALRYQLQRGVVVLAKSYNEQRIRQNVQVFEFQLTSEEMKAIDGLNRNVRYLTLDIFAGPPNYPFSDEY
PDK1: [Pyruvate dehydrogenase (acetyl-transferring)] kinase isozyme 1, mitochondrial (PDK1, Homo sapiens, UniProt Q15118)
Sequence of UniProt Q15118 (whole entry, looked up): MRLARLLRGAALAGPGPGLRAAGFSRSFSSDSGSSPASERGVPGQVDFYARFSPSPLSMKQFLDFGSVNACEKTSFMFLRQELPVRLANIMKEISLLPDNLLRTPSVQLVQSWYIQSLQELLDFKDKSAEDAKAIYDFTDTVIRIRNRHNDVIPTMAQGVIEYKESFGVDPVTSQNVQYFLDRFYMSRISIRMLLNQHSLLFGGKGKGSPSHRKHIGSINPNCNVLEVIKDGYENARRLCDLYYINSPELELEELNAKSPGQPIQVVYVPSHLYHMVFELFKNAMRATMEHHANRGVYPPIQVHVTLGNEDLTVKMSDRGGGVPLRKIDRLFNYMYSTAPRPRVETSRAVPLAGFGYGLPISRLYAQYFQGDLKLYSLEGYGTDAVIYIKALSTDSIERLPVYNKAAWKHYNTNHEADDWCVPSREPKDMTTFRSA
PTK2: Focal adhesion kinase 1 (PTK2, Homo sapiens, UniProt Q05397)
Sequence of UniProt Q05397 (whole entry, looked up): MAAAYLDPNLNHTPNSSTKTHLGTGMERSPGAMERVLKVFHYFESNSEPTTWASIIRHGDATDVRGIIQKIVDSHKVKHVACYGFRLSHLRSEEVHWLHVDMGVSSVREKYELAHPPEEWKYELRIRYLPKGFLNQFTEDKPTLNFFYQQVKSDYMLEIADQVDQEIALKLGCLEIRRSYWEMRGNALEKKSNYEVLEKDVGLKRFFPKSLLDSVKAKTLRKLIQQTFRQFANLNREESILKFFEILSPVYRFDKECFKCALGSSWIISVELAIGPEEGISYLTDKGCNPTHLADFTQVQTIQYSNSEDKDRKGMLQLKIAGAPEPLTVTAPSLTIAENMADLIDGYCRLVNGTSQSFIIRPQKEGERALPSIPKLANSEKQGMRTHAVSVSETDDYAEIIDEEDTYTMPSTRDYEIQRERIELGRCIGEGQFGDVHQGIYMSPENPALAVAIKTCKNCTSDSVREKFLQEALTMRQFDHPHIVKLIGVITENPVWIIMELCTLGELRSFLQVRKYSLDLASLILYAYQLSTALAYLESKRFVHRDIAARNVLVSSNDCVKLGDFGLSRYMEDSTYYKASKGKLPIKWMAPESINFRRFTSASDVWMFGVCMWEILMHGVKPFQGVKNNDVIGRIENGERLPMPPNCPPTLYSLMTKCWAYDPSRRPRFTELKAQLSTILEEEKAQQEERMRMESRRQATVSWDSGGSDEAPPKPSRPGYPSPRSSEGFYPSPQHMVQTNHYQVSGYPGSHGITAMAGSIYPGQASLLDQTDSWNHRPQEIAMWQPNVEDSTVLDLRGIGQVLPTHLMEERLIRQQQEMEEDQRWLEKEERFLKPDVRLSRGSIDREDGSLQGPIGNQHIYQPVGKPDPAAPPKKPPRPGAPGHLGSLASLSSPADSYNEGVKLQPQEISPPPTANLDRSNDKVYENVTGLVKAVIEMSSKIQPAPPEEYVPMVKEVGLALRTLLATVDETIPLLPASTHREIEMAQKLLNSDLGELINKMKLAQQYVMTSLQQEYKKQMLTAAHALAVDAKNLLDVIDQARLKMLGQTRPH
CDK4 with cyclin D3: Cyclin-dependent kinase 4, with cyclin D3 (CDK4, Homo sapiens, UniProt P11802)
Sequence of UniProt P11802 (whole entry, looked up): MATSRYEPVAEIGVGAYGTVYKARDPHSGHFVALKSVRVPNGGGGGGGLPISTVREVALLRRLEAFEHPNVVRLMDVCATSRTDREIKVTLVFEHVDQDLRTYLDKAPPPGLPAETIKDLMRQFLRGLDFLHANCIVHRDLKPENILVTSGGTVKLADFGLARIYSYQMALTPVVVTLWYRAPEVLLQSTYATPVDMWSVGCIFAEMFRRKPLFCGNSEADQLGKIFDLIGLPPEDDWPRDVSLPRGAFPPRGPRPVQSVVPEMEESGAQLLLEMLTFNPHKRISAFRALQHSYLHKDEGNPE
ELANE: Neutrophil elastase (ELANE, Homo sapiens, UniProt P08246)
Sequence of UniProt P08246 (whole entry, looked up): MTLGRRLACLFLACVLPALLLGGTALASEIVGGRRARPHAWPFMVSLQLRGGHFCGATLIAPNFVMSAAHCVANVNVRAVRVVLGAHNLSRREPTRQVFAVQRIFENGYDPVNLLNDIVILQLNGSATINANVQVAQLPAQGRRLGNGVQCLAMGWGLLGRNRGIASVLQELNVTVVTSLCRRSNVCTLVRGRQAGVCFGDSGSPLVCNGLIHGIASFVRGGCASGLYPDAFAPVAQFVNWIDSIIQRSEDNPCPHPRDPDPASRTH
AMY2: Pancreatic alpha-amylase (AMY2, Sus scrofa, UniProt P00690)
Sequence of UniProt P00690 (whole entry, looked up): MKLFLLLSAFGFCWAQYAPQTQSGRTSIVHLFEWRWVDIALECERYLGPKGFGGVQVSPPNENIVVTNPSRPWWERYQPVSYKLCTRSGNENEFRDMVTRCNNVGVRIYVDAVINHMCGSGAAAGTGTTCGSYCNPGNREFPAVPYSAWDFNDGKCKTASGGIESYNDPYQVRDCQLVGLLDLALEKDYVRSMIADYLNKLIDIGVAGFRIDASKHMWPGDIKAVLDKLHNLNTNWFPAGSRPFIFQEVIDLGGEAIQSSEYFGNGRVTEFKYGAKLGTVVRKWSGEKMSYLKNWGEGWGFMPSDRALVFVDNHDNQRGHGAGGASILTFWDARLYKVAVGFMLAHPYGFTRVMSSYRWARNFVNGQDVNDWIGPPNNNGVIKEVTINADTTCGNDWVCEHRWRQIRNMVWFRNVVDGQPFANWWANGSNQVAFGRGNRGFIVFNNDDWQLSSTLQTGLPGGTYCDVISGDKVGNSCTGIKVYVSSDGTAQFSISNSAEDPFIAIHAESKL
Sequence of UniProt P48736 (whole entry, looked up): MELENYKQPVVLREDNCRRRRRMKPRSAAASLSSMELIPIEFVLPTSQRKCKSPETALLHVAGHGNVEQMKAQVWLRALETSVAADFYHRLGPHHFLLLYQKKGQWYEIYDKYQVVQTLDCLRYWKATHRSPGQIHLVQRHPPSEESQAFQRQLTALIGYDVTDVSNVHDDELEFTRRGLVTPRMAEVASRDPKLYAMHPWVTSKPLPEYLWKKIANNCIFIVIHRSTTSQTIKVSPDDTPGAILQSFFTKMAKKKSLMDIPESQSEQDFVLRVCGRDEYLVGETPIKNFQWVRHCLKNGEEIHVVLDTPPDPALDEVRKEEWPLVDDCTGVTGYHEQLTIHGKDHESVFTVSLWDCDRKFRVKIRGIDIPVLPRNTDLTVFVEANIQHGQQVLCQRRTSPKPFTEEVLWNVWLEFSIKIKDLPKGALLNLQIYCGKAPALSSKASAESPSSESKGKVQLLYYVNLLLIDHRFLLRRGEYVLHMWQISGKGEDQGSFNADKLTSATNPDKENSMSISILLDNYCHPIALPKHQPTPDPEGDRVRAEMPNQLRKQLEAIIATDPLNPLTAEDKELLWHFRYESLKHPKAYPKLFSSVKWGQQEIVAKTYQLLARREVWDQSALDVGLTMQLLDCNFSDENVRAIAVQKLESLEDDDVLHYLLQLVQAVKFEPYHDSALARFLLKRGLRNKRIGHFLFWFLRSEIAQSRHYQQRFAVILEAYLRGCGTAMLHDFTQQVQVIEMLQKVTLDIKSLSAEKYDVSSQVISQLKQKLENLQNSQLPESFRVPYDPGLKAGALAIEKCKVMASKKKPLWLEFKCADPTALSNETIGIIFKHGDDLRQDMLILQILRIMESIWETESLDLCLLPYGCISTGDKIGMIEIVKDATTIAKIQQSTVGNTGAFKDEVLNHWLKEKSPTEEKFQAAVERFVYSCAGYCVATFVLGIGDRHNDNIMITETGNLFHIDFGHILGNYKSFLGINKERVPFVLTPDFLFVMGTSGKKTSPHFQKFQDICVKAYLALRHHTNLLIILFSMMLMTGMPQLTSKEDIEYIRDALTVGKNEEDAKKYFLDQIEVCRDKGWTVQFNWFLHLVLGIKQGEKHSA

SMILES	target	assay	system	conditions	inhibition
Cc1cccc(NCC(=O)Nc2nc3ccccc3s2)c1	Phosphatidylinositol 4,5-bisphosphate 3-kinase catalytic subunit gamma isoform (PIK3CG, Homo sapiens, UniProt P48736)	enzyme activity, Adapta kinase	–	100 µM	52% and 44%
COc1ccc(C(=O)NO)cc1NC(=O)c1ccc(Cl)cc1	hdac10	–	–	1 µM	31%
C/C(=N\OCCCN1CCCC1)c1ccc(C(F)(F)F)cc1	Sigmar1	radioligand binding	–	10 µM	94%
COC(=O)C(Cc1cccc(C)n1)NC(=O)CCCCCCC(=O)NO (stereo not drawn)	hdac10	–	–	0.1 µM	11%
C/C(=N\OCCN1CCCC1)c1ccc(C(F)(F)F)cc1	Sigmar1	radioligand binding	–	10 µM	94.2%
CN(C)c1ccc(C(=O)NCC2CCC(C(=O)NO)CC2)cc1 (stereo not drawn)	hdac10	–	–	0.1 µM	11%
O=C(O)c1cccc(S(=O)(=O)NC2CC2)c1	Ectonucleoside triphosphate diphosphohydrolase 8	enzyme activity, inhibitor, absorbance	–	100 µM	24%
Oc1cc(O)c2c(c1)O[C@H](c1cc(O)c(O)c(O)c1)[C@H](O)C2	Pancreatic triacylglycerol lipase (PNLIP, Sus scrofa, UniProt P00591)	enzyme activity, inhibitor	–	10 µM	89.5%
O=C(NO)c1coc(-c2ccc3ccccc3c2)n1	hdac10	–	–	1 µM	34%
COc1cc2c(cc1Cl)[C@H]1CC[C@@]3(C)C(=O)CC[C@H]3[C@@H]1CC2	AKR1C2	enzyme activity, inhibitor, absorbance	–	100 µM, pH 9	76.3%
CN(C1COC1)C(C)(C)/C=C(\C#N)C(=O)N1CCC[C@H]1Cn1nc(-c2ccc(Oc3ccccc3)cc2F)c2c(N)ncnc21	Tyrosine-protein kinase TXK (TXK, Homo sapiens, UniProt P42681)	–	–	1 µM, mean	> 90%
Clc1ccc(-c2cs/c(=N/N=C/c3ccc(N4CCOCC4)cc3)n2-c2cccc3ccccc23)cc1	Carbonic anhydrase 2 (CA2, Bos taurus, UniProt P00921)	enzyme activity, inhibitor, absorbance	–	500 µM	80.5%
CCOC(=O)c1c(NC(=O)CCl)sc2c1CCC(c1ccccc1)C2 (stereo not drawn)	PDK1	enzyme activity, inhibitor, ATP luminescence	–	100 µg/mL	38%
O=C(NC1CCCC1)c1cccc(S(=O)(=O)NC2CCCC2)c1	Ectonucleoside triphosphate diphosphohydrolase 3 (Homo sapiens, UniProt O75355)	enzyme activity, inhibitor, absorbance	–	100 µM	9%
O=C(NO)c1ccc(Cl)c(NC(=O)c2cccc(OCc3ccccc3)c2)c1	hdac10	–	–	1 µM	20%
C[C@H](NC(=O)CNC(=O)[C@H](Cc1ccc(O)cc1)NC(=O)[C@@H](N)CSSC[C@H](N)C(=O)N[C@@H](Cc1ccc(O)cc1)C(=O)NCC(=O)N[C@@H](C)C(=O)N[C@@H](CCCCN)C(N)=O)C(=O)N[C@@H](CCCCN)C(N)=O	Calpain-10, mitochondrial (Oryctolagus cuniculus, UniProt G1TPK4)	enzyme activity	mitochondrial matrix	1 µM, 15 min preincubation	> 90%
C[C@@]12CC[C@@H]3c4cc(Cl)c(O)cc4CC[C@H]3[C@@H]1CCC2=O	AKR1C2	enzyme activity, inhibitor, absorbance	–	100 µM, pH 9	75.4%
COc1cc(C(=O)NC2CCC(N3CCN(CC4CCC5(CCCC5)C4)CC3)CC2)c(F)cc1Nc1ncc2c(n1)N(C1CCCC1(F)F)CC(F)(F)C(=O)N2C (stereo not drawn)	PTK2	cell-free assay, TR-FRET	–	10 µM	3.08%
C=CC(=O)Nc1cccc(-c2cnc3[nH]cc(C(=O)NC(C)(C)C)c3n2)c1	NUAK family SNF1-like kinase 1 (NUAK1, Homo sapiens, UniProt O60285)	enzyme activity, inhibitor	–	0.1 µM	> 90%
CC(C)Cn1cc(-c2ccnc(Nc3ccc(N4CCN(CCCCCCC(=O)NO)CC4)cc3)n2)nn1	CDK4 with cyclin D3	enzyme activity, inhibitor, TR-FRET	–	50 nM	28.2%
O=C(c1ccc(OCCCO)c([N+](=O)[O-])c1)C(Cl)Cl	PDK1	enzyme activity, inhibitor, ATP luminescence	–	10 µM	33.2 to 39.1%
CN(Cc1cc(C2CC2)on1)C(=O)c1cccc(-c2ccncc2)c1	Acetyl-CoA synthetase (Cryptococcus neoformans, UniProt J9VFT1)	enzyme activity	–	concentration not given	inactive
C[C@]12CC[C@@H]3c4cc(I)c(O)cc4CC[C@H]3[C@@H]1CCC2=O	AKR1C2	enzyme activity, inhibitor, absorbance	–	10 µM, pH 9	20.2%
O=C(Nc1ccc(C(F)(F)F)cc1)Nc1nc2ccccc2s1	Beta-glucuronidase (uidA, Escherichia coli, UniProt P05804)	enzyme activity, inhibitor, absorbance	–	100 µM	58.2%
COC(=O)C(Cc1ccccn1)NC(=O)CCCCCCC(=O)NO (stereo not drawn)	hdac10	–	–	0.1 µM	< 10%
Oc1cccc(Nc2ncnc3[nH]c4cc(Br)ccc4c23)c1	Protein-tyrosine kinase 6 (PTK6, Homo sapiens, UniProt Q13882)	enzyme activity, inhibitor, ADP detection	–	2 µM	77.5%
C/C(=N\OCCCCN1CCCCC1)c1cccc(C(F)(F)F)c1	Sigmar1	radioligand binding	–	10 µM	99.4%

SMILES	target	assay	system	conditions	inhibition
O=C1CSC(c2cccc(Br)c2)N1c1cc(Cl)ccc1O (stereo not drawn)	ACTR3/Actin-related protein 2 (Homo sapiens, UniProt P61158+P61160)	actin polymerization, pyrenyl-actin	–	20 µM, together with: 300 nM ActA	inhibited
CC(C)C[C@H]1CNC(=O)N2C[C@H](C[C@H]2C(N)=O)SCC(=O)NCCNC(=O)CSC[C@H](NC(=O)[C@H](Cc2ccccc2)NC(=O)[C@H](CO)NC(=O)[C@@H](N)[C@@H](C)O)C(=O)N[C@@H](CCC(=O)O)C(=O)N[C@@H](Cc2ccc(O)cc2)C(=O)N[C@@H](Cc2c[nH]c3ccccc23)C(=O)N[C@@H](C)C(=O)N[C@@H](CC(C)C)CNC(=O)N1	Protein Mdm4, with p53 (MDM4, Homo sapiens, UniProt O15151)	inhibitor, HTRF	–	100 nM	43%
O=C1C=C(O)C(=O)c2ccccc21	1-deoxy-D-xylulose 5-phosphate reductoisomerase (Escherichia coli K-12, UniProt P45568)	enzyme activity, inhibitor, absorbance	–	100 µM	100%
Nc1ccccc1NC(=O)c1ccc(Nc2nccc(-c3cn(C4CCCCC4)nn3)n2)cc1	CDK4 with cyclin D3	enzyme activity, inhibitor, TR-FRET	–	5 µM	13.7%
CN(CCON=C(c1ccccc1)c1ccc(C(F)(F)F)cc1)Cc1ccccc1 (mixture of isomers)	Sigmar1	radioligand binding	–	1 µM	67.4%
CCCCCCCCCCCC(=O)N[C@H](CO)C[C@@H](O)c1ccccc1	Ceramide transfer protein (CERT1, Homo sapiens, UniProt Q9Y5P4)	target engagement in cells, BRET	HeLa	0.2 µM	~40%
C/C(=N\OCCCN1CCCCC1)c1ccc(S(C)(=O)=O)cc1	Sigmar1	radioligand binding	–	1 µM	70.3%
CC[C@H](C)[C@H](NC(=O)[C@H](CCCNC(=N)N)NC(=O)[C@H](CCCCN)NC(=O)[C@@H]1CCCN1C(=O)[C@@H]1CCCN1CCCN(CC[C@H](N)C(=O)O)C[C@H]1O[C@@H](n2cnc3c(N)ncnc32)[C@H](O)[C@@H]1O)C(=O)N[C@@H](C)C(N)=O	Histone-lysine N-methyltransferase EHMT2 (EHMT2, Homo sapiens, UniProt Q96KQ7)	enzyme activity, inhibitor	–	33 µM	< 20%
CNC(=O)c1ccccc1Oc1nc(Nc2cc(OC)c(OC)c(OC)c2)ncc1Br	5'-AMP-activated protein kinase catalytic subunit alpha-1 (PRKAA1, Homo sapiens, UniProt Q13131)	inhibitor	–	1 µM	~80%
O=c1c(-c2nc3ccccc3s2)cc2c(n1NS(=O)(=O)c1ccc(Cl)cc1)CCCCCC2	Ubiquitin carboxyl-terminal hydrolase 7 (USP7, Homo sapiens, UniProt Q93009)	enzyme activity, inhibitor, fluorescence	–	0.1 µg/mL	3.15%
Cc1nc2ccccc2n1S(=O)(=O)c1ccc2c(c1)C(=O)CC2=O	ELANE	enzyme activity, inhibitor, fluorescence	–	0.1 µM	24.1%
CC(=O)OC1CCC2(C)C(CCC3(C)C2CCC2C(C4=CC(C=C(C)C)OC4=O)CCC23C)C1(C)C (stereo not drawn)	AMY2	enzyme activity, inhibitor, absorbance	–	250 µM	26.5%
Cc1nc2cc(-c3cc4c(cc3F)NC(=O)CO4)cc(Cl)c2o1	Programmed cell death 1 ligand 1, with PD-1 (CD274, Homo sapiens, UniProt Q9NZQ7)	PD-1/PD-L1 binding, inhibitor, TR-FRET	–	25 µM	≥ 20%
C[C@@]12CC[C@@H]3c4cc(Br)c(O)cc4CC[C@H]3[C@@H]1CCC2=O	AKR1C2	enzyme activity, inhibitor, absorbance	–	100 µM, pH 9	65%
O=C(/C=C/c1ccc(Cl)cc1Cl)NO	hdac10	–	–	0.1 µM	53%
Nc1ncnc2c1ncn2[C@@H]1O[C@H](COS(=O)(=O)NC(=O)[C@@H]2CCCN2)[C@@H](O)[C@H]1O	Bifunctional glutamate/proline--tRNA ligase, prolyl-tRNA synthetase domain (EPRS1, Homo sapiens, UniProt P07814)	binding, immobilised protein	–	10 nM, together with: [3H]-halofuginone	inhibited
C[C@@]12CC[C@@H]3c4ccc(O)c(Br)c4CC[C@H]3[C@@H]1CCC2=O	AKR1C2	enzyme activity, inhibitor, absorbance	–	10 µM, pH 9	80%
Cc1ccc(NC(=O)c2cccc(S(=O)(=O)N3CCOCC3)c2)c(C)c1	Ectonucleoside triphosphate diphosphohydrolase 8	enzyme activity, inhibitor, absorbance	–	100 µM	39%
CC(C)Cn1cc(-c2ccnc(Nc3ccc(OCCCCCCC(=O)NO)cc3)n2)nn1	CDK4 with cyclin D3	enzyme activity, inhibitor, TR-FRET	–	50 nM	1.99%
Cc1cccc(/C=C/C(=O)c2cnn(-c3ccccc3)c2C)c1	AMY2	enzyme activity, inhibitor, absorbance	–	500 µM	45.4%
CC(C)(O)CC(=O)CC(C(=O)O)C1CC[C@]2(C)C1CCC1[C@@]3(C)CC[C@H](O)C(C)(C)C3CC[C@]12C (stereo partly drawn)	α-glucosidase (yeast)	–	–	50 µM, together with: PNPG substrate	44.3 ± 3.75%
COc1cc(OC2CCN(C)CC2)ccc1Nc1ncc2c(n1)n(C1CCCC1)c(=O)n2C	PTK2	enzyme activity, inhibitor	–	1 µM	> 40%
COc1cc(OC)c(C(=O)CCc2ccccc2)c(O)c1O	α-glucosidase (Saccharomyces cerevisiae)	inhibitor	–	10 µg/mL, together with: pNPG	32.9 ± 1.77%
O=C1CC(=O)c2cc(S(=O)(=O)n3cnc4ccccc43)ccc21	ELANE	enzyme activity, inhibitor, fluorescence	–	50 µM	53.5%
CCC(=O)N(C)c1ccc(Cl)c(Cl)c1	Adenosine receptor A1 (ADORA1, Homo sapiens, UniProt P30542)	ligand displacement, radioligand	–	10 µM	21.9%
C[C@@]12CC[C@@H]3c4cc(Br)c(O)c(Br)c4CC[C@H]3[C@@H]1CCC2=O	AKR1C2	enzyme activity, inhibitor, absorbance	–	10 µM, pH 9	70.3%
CC(C)Cc1ccc(S(=O)(=O)N2CCN(Cc3noc(CCC(=O)NC4CCCCC4)n3)CC2)cc1	Sodium channel protein type 9 subunit alpha (SCN9A, Homo sapiens, UniProt Q15858)	sodium current, whole-cell patch clamp	HEK293, stable	20 µM	28 ± 5%
